# Results gathered from unrelated publications.
# Each numbered part is a random draw from the data of one study; scales do not carry over between parts. Substitutions count along the parent as printed.

# Study 1
# Target: Histone acetyltransferase KAT6A, both winged helices, GST fusion (KAT6A, Homo sapiens, UniProt Q92794, residues 1-181)
# Technique: protein binding microarray
# Form: double-stranded DNA, one strand shown
# Sample: in vitro
# Tested at: not given
# Setting: 8-mer, flanks averaged, mean of 2 arrays, mostly near background
# Baseline: not given
# Reading: higher = stronger binding
# Target sequence (chain): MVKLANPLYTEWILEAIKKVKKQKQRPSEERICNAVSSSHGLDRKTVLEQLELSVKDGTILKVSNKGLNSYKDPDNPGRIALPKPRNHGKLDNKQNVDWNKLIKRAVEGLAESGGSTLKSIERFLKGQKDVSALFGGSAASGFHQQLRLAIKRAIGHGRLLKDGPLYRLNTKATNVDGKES
Oligonucleotide,E-score
CGGCGTGA,0.302
GCTGATCC,-0.00354
CGGGGTGC,0.184
ATCCATCA,-0.158
CTAGACAC,0.0016

# Study 2
# Target: RING finger protein unkempt homolog, zinc fingers 1-6, GST-SBP tag (UNK, Homo sapiens, UniProt Q9C0B0, residues 30-357)
# Technique: RNA Bind-n-Seq
# Form: RNA
# Sample: in vitro
# Tested at: not given
# Setting: RNA with constant flanks, human and mouse sites, ends assumed
# Baseline: input RNA pool
# Reading: higher = stronger binding
# Constant ends, left off below: GGGAGUUCUACAGUCCGACGAUC … CAACAGAGGAUUGAGCAUCA
# Construct (chain): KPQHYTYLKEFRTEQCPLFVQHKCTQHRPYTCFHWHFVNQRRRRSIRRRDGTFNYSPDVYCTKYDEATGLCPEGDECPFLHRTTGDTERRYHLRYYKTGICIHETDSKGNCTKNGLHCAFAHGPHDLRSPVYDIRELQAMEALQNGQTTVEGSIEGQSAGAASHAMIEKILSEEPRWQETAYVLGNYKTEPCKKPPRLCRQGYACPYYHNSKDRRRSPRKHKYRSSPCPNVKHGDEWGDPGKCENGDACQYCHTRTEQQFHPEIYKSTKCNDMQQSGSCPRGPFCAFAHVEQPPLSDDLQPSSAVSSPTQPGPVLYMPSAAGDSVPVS
Oligonucleotide,bound/input enrichment
UAAAAACCGUUGUUUGCUUUAAAUUUUCAUAAACUGGAAUCCUUUCACCCGCUCCUACAGCUAACCCUCACAAGCAUGAAGUGCUGUGGCUGUUCCUUAUCCUAAUGAUGCGCUUUUGUC,0.384 ratio
UCACACUCACAUUGUGGCAAACAGUCAACAUGGAAGUAGACCGGCUCUGCUGAUUUGAAAUUUAGAUUUUUUUUUAAUUAUGUACUGGGGACAGGUUUUUGUCGCUUUACAUUGCUUCCU,86.5 ratio
AGAUUCAAAGUUGUCAAGGGAUUCAUGGAAGACGAAGGUCGGCAGCGAACCACCAAGUACAUUUCCUGCGUGUUUGCAGAGGAGAGCGACCUAAGCCGGCAGUACCAAAGAGAGAAGGCC,0.16 ratio
UAUAUUUUGGAUUCUGUUUGUGUUGAAUUUUUUAAUCAUUGUGCACAGAAGCAUCAUUGGUAGCUUUUAUAUGCAAAUGGUCAUUUCAGAUGUAUGGUGUUUUUACACUACAAAGAAGUC,0.0699 ratio
CCGUCUCAGCUUACCCACUCUUGACUCCUUUGAGCCUUUCAGAGGGGCAGUUUCUGGUAGUAGCAGCUUUUAUACUUUCACGGAAUUCCUUCAGUCCAGAGAGUUCUGGCAGCAGGCCGU,0.161 ratio
GGAUACGGCAACCCCCGGAACUCACCAGGCCUGCUGGUCUCACCUGGUAACCUGAACAAGAAUAUACAAGCCAAAUCUCCUCCCCCUAUGAAUCUAGGAAUGAAUAAUCGUAAGCCAGAU,0.72 ratio

# Other studies, line by line
# CCNA1: CCNA1, cyclin fold, Cln2 fusion (human)
# P1: CDC6 docking peptide (human); TLKGRRLVFDNQL; partner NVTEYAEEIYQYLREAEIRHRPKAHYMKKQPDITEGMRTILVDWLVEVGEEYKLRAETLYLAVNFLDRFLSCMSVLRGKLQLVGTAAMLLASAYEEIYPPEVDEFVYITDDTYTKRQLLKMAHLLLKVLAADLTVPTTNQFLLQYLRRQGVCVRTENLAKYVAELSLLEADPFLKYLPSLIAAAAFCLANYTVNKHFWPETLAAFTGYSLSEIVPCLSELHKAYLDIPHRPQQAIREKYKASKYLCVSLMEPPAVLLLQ
# P2: PKN2 docking peptide (human); VSAVRKLDFSDTM; partner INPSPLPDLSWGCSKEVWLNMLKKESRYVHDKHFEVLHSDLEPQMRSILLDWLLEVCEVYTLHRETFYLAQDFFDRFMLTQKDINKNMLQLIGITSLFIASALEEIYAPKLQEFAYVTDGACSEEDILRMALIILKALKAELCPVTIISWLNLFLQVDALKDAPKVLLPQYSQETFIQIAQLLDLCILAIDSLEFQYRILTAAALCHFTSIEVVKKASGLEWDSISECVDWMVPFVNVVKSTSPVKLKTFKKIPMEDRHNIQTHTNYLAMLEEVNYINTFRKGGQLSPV
Substance,target,assay,system,conditions,scale,measurement,value
P1 L7C,CCNA1,"yeast growth competition, sequencing",yeast,weak parent motif,"baseline: not given, higher = stronger binding",normalised enrichment score,0.106
"PhoQ, residues 284 288 289 292 302 303 SNGLAW","PhoP, residues 12 14 15 18 19 NFCKL (Escherichia coli, UniProt P23836)","Sort-seq, measured: YFP reporter",E. coli,"PhoQ-PhoP variant library, added: 10 µM Mg2+","baseline: high Mg2+ state, higher = stronger signaling",fold induction,10.1
PPVIIKYIIINRF,human cyclin A2,"peptide binding, competitive growth sequencing","peptide, Saccharomyces cerevisiae, cyclin A2-Cln2 fusion strain","concentration not given, mutational scanning library 2","baseline: unfused Cln2 strain, direction not given",binding score,1.15
P1 Q12K,CCNA1,"yeast growth competition, sequencing",yeast,weak parent motif,"baseline: not given, higher = stronger binding",normalised enrichment score,-0.143
P2 T12Y,"CCNE2, cyclin fold, Cln2 fusion (human)","yeast growth competition, sequencing",yeast,strong parent motif,"baseline: not given, higher = stronger binding",normalised enrichment score,5.44

# A few entries again (study 1):
Oligonucleotide,E-score
CTAGACAC,0.0016
GCTGATCC,-0.00354
